# Measured values pooled from the literature.
# Each numbered part is a random draw from the data of one study; scales do not carry over between parts. Positions count from the first letter of the parent shown.
# Chain of UniProt P28335 (whole entry, looked up): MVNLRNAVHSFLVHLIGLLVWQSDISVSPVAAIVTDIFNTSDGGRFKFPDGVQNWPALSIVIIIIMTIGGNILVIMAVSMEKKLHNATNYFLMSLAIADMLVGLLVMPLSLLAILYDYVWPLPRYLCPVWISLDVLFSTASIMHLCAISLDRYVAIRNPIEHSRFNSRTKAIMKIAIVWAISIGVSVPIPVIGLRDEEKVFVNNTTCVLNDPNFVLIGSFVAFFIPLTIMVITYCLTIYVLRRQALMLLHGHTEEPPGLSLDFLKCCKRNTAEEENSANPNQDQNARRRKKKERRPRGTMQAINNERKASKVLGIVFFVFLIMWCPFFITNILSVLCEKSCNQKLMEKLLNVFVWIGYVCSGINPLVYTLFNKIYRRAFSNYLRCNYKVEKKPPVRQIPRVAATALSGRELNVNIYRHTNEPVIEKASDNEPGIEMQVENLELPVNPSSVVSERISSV
# Chain of UniProt Q7L7X3 (whole entry, looked up): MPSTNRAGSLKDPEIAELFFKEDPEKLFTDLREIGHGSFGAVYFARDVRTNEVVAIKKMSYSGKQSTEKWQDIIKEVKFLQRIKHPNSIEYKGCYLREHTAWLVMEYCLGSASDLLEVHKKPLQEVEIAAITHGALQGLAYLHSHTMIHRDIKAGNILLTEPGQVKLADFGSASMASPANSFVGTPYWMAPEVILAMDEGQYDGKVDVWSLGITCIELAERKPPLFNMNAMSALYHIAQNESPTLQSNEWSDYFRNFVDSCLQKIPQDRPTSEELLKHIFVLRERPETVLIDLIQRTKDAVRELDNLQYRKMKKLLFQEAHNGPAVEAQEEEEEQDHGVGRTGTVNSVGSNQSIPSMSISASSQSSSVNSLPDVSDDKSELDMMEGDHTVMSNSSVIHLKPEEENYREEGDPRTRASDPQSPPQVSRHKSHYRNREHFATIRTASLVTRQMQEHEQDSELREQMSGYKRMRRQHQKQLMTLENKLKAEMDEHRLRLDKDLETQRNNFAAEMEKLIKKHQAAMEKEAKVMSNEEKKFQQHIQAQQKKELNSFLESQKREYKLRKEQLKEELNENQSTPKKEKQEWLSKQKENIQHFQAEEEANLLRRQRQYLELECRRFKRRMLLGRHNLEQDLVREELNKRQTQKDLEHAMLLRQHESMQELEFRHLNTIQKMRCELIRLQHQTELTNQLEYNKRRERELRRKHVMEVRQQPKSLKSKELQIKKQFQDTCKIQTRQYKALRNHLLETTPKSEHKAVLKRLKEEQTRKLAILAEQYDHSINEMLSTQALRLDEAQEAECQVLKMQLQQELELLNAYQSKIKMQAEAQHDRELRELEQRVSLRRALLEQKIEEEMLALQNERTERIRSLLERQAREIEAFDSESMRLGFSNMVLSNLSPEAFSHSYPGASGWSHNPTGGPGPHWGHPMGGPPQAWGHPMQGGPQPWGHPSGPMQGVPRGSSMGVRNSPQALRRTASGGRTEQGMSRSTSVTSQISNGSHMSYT

# Block 1
# Target: UDP-N-acetylglucosamine--peptide N-acetylglucosaminyltransferase 110 kDa subunit (OGT, Homo sapiens, UniProt O15294)
# Read-out: binding
# Method: phage display NGS
# Form: peptide
# Reference: input library
# Target sequence (O15294 1-1046): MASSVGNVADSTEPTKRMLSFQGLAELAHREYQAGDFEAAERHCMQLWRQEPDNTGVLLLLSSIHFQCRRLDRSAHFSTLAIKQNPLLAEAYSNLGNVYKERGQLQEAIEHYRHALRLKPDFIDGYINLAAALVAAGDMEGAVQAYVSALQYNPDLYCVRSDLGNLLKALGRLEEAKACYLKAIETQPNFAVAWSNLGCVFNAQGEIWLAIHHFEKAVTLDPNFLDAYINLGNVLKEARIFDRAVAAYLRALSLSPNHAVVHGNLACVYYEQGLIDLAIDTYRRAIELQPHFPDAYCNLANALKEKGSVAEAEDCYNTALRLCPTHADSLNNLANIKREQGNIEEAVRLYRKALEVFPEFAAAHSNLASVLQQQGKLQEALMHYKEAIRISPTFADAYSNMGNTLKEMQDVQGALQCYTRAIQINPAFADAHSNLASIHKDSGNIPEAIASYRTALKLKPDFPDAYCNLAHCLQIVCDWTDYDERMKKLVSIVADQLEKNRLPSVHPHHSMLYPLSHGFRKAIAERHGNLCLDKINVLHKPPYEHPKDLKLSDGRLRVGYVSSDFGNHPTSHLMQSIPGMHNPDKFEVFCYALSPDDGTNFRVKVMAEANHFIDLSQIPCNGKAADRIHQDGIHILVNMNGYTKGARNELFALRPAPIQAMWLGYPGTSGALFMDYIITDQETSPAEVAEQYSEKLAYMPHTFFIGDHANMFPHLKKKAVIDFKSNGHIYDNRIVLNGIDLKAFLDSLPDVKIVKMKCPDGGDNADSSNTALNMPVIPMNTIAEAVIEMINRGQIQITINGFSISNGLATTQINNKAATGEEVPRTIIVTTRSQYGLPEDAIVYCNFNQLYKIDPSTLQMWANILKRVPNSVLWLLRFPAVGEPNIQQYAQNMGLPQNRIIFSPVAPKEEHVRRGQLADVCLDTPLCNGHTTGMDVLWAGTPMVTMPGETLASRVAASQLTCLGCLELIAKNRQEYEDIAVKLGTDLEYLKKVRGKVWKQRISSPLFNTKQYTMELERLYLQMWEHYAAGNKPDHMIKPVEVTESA
Molecule,minimum log2 enrichment ratio
HPSHHHGHQNEYYV,3.19
HLEQHMHHMIHKYAN,1.68
HWNEGTHSTWFPHMH,2.2
HQHQHIDHHYLFEG,2.42
STDWSPFTPMYQIKA,4.72
HNVEPMHHNHSARPY,2.92
TEVPPQYIIEYWKLD,2.43
YIERTSVMPQYQITY,4.39

# Block 2
# Target: vanadate, free oxyanion
# Method: microfluidic competitive inhibition
# Matrix: in vitro, cell-free expressed
# Tested at: not given
# Setting: derived from inhibition constants, unchanged parent 676 nM
# Direction: lower = stronger binding
# Parent: PafA, mature enzyme, eGFP fusion (Elizabethkingia meningoseptica, UniProt Q9KJX5); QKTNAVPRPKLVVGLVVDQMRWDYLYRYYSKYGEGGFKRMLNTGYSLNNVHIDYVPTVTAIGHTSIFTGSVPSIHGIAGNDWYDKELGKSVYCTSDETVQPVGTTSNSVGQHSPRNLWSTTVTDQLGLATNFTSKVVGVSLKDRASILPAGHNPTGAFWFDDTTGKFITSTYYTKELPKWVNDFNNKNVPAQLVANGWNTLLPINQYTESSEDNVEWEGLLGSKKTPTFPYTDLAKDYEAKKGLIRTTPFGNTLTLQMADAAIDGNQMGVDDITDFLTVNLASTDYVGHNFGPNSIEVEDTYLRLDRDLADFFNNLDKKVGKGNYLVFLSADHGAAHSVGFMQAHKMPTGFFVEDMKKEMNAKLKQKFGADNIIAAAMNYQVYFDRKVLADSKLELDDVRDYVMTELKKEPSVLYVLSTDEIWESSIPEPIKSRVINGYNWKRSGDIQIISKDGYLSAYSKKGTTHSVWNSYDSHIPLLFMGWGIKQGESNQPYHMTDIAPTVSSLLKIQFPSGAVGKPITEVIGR
Substitution,oxyanion analog dissociation constant [nM]
P149G,517
I204V,777
H63G,2830
A60V,6420
V181A,620
F291G,468
N199V,714
Y32G,744

# Single results of other studies
Structure (SMILES),target,read-out,mode,tested at,reference,measurement,result
O=C1NC(c2ccccn2)Sc2ccccc21 (stereo not drawn),"HTR2C (Homo sapiens, UniProt P28335)",ligand displacement,,10 µM,,inhibition,3.98%
N/C(=N\[N+](=O)[O-])N/N=C\c1ccc(-c2cccc([N+](=O)[O-])c2)o1,"TAOK1 (Homo sapiens, UniProt Q7L7X3)",enzyme activity,inhibitor,0.5 µM,control,remaining activity,89.6%
